{"data": "Published values pooled from the literature", "note": "Each numbered part is a random draw from the data of one study; scales do not carry over between parts."}
{"data": "Block 1", "target": "Ras GTPase-activating protein-binding protein 1, full length (G3BP1, Homo sapiens, UniProt Q13283)", "method": "RNA Bind-n-Seq", "molecule type": "RNA", "matrix": "in vitro", "concentration": "200 nM", "notes": "whole 134-nt RNA, ends assumed", "with": "150 mM LiCl", "baseline": "input library", "direction": "higher = stronger binding", "library": "7-deaza-guanosine replaces G", "sequence of UniProt Q13283 (whole entry, looked up)": "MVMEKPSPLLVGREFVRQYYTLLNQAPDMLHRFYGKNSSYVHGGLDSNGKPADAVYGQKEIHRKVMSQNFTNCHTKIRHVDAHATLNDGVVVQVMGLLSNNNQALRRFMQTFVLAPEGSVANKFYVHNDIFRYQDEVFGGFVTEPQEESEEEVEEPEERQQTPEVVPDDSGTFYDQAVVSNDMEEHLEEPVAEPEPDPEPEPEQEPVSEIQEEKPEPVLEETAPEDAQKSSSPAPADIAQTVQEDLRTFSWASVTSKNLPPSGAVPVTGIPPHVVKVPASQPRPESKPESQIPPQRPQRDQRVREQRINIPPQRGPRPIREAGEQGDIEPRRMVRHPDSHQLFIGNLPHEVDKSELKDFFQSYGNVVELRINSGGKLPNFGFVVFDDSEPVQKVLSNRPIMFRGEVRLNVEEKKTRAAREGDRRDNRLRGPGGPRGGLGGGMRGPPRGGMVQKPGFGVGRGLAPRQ"}
{"Strand": "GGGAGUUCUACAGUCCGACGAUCAGUCCUGUGCUACACAUCGUAUGUACCGAAUCGGGUUUGGGAAAGGGAAAAAAAGGGAAAGUAUUAUGUUACGCCGUUCGGAUCUGCACUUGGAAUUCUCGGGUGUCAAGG", "log2 enrichment": -0.286}
{"Strand": "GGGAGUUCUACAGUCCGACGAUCGUCCUGUGCUACACAUCGUAUGUACCGAAUCGGGGUGGGGUUUUUGGGGAAAAAGGGGAAAGUAUUAUGUUACGCCGUUCGGAUCUGCACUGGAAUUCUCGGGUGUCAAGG", "log2 enrichment": 0.115}
{"Strand": "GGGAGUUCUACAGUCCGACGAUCGCAGGAAGUAAAAACAAAUGGAAAUGCUUCGGAUAGAAACAGGGGUGGGGGUUGCUAAGGAAAGGGUGGGAUGGGAGUGGGUAAAGAGUUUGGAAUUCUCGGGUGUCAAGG", "log2 enrichment": 0.438}
{"Strand": "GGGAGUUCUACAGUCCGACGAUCCACAGACAACACGCACCCACACAGACACAGAGGGAAGGGGUUGGGAUGGGGACAGGGUGCACAGCAGGGCGGGGUAGGACCCCAAAACCUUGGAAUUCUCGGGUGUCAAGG", "log2 enrichment": -1.77}
{"Strand": "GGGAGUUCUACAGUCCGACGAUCCUCAAGUCCUGUGCUACACAUCGUAUGUACCGAAUCGGUGGUUUUUUUGGUGGAAAGUAUUAUGUUACGCCGUUCGGAUCUGCACUUCCAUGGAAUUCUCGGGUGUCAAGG", "log2 enrichment": 1.16}
{"data": "Block 2", "target": "Histone acetyltransferase KAT6A, both winged helices, GST fusion (KAT6A, Homo sapiens, UniProt Q92794, residues 1-181)", "method": "protein binding microarray", "molecule type": "double-stranded DNA, one strand shown", "matrix": "in vitro", "concentration": "not given", "notes": "8-mer, flanks averaged, mean of 2 arrays, mostly near background", "baseline": "not given", "direction": "higher = stronger binding", "Construct (chain)": "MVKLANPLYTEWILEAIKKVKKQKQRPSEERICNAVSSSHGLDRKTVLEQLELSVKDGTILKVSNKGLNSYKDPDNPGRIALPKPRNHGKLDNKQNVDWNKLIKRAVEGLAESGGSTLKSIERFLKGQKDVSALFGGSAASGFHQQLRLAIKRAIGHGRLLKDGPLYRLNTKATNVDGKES"}
{"Strand": "AGTCATGC", "E-score": 0.0565}
{"Strand": "AAGAGAGA", "E-score": -0.286}
{"Strand": "GATATCAA", "E-score": -0.0272}
{"Strand": "GCCGCCCC", "E-score": 0.2}
{"Strand": "AATCAAGG", "E-score": -0.0585}
{"Strand": "CACAGGCA", "E-score": -0.196}
{"Strand": "CCAAAGGC", "E-score": -0.0725}
{"Strand": "AGGCCTCG", "E-score": -0.0277}
{"Strand": "GAATGCAC", "E-score": -0.033}
{"Strand": "ATGCGTAC", "E-score": 0.138}
{"Strand": "AAGTAAAG", "E-score": -0.065}
{"Strand": "ACACTACA", "E-score": -0.0804}
{"data": "Block 3", "target": "Sal-like protein 4, full length isoform B (SALL4, Homo sapiens, UniProt Q9UJQ4-2, residues 1-616)", "method": "universal PBM", "molecule type": "double-stranded DNA, one strand shown", "matrix": "in vitro", "concentration": "not given", "notes": "8-mer, flanks averaged, mean of replicates", "direction": "higher = stronger binding", "Target sequence (chain)": "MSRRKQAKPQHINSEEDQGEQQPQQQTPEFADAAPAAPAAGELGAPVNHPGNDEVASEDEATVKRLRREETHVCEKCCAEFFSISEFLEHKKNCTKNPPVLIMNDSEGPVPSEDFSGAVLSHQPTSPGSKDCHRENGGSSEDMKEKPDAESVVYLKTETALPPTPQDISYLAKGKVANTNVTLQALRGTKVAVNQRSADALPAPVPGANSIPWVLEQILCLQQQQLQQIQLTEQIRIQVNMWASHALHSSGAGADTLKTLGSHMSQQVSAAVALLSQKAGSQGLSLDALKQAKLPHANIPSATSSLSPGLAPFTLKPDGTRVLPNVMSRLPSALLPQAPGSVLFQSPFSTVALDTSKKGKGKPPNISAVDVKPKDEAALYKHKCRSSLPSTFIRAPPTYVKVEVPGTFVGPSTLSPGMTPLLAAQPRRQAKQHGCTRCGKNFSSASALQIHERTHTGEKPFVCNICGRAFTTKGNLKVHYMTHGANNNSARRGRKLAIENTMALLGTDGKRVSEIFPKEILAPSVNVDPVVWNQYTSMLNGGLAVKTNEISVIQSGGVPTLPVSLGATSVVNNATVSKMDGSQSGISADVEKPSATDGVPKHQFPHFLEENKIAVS"}
{"Strand": "CCTACAAG", "E-score": 0.0323}
{"Strand": "AGCGCGGC", "E-score": -0.27}
{"Strand": "TCACGAGA", "E-score": -0.0871}
{"Strand": "CATCCACC", "E-score": -0.095}
{"Strand": "CGCGGTAG", "E-score": -0.0653}
{"Strand": "AAACACCT", "E-score": 0.0385}
{"Strand": "CGCGATGA", "E-score": -0.0136}
{"Strand": "AAGCTCCG", "E-score": -0.223}
{"data": "Further values, each from its own experiment"}
{"Molecule": "PhoQ, residues 284 288 289 292 302 303 SNGLAW", "target": "PhoP, residues 12 14 15 18 19 LYFRQ (Escherichia coli, UniProt P23836)", "assay": "Sort-seq, item: YFP reporter", "test system": "E. coli", "conditions": "PhoQ-PhoP variant library, with: 10 µM Mg2+", "how to read": "baseline: high Mg2+ state, higher = stronger signaling", "measurement": "fold induction", "result": 15.6}
{"note": "Repeated from above (block 2):"}
{"Strand": "GCCGCCCC", "E-score": 0.2}
{"Strand": "AATCAAGG", "E-score": -0.0585}
{"Strand": "AGGCCTCG", "E-score": -0.0277}
